# Measured values collected from several papers.
SMILES,test,system,setting,quantity,result
C[C@]1(O)C[C@@](N)(c2ccc(-c3nc4n(c3-c3ccccc3)COc3ccncc3-4)cc2)C1,,"human, advanced or metastatic solid tumours","dose not given, all patients, any grade",patients with Hyperglycemia TEAE,29.4%
Cn1ncc(-c2nc(N[C@H]3CC[C@H](N)CC3)ncc2Cl)c1CC1CC1,item: treatment-related Nausea,human patients phase I,dose not given,patients with adverse events,51.6%
C=CC(=O)Nc1cc(Nc2nccc(Nc3cc(Cl)c(F)cc3C(C)(C)O)n2)c(OC)cc1N1CC[C@@H](N(C)C)C1,,human patients,"oral, 300 mg, treatment-emergent adverse events",patients with lipase increased,15.7%
CCN(CCO)CCCC(C)Nc1ccnc2cc(Cl)ccc12 (centres unmarked),,"human, newly diagnosed glioblastoma","oral, 400 mg/dose, WBC decrease grade 4, with RT and TMZ",patients with adverse event,33%
Cc1cn([C@H]2O[C@@H](CO[P@@](=O)(N[C@@H](C)C(=O)OC(C)C)Oc3ccccc3)[C@H](O)[C@H]2F)c(=O)[nH]c1=O,item: blood CPK increased,human,10 mg,patients with TEAE,0%
COc1ncnn2ccc(-c3cnc4nc(C)n(Cc5nnc([C@@H](C)F)o5)c4c3)c12,,human,"oral, dose not given, grade 5",patients with pyrexia,0%
C[C@@H]1OC(=O)NN=C1c1ccc(-c2ccc(F)cc2)c(C(F)(F)F)c1,"phase I trial, item: muscle spasms worst grade 1",human patients,5 mg loading then 0.25 mg daily,patients with adverse event,100%
O=C(c1ccc(F)c(F)c1Nc1ccc(I)cc1F)N1CC(O)([C@@H]2CCCCN2)C1,,human patients,"oral, 1 mg/kg, dose expansion cohort",patients with AE leading to withdrawal,8%

# Repeated from above:
SMILES,test,system,setting,quantity,result
COc1ncnn2ccc(-c3cnc4nc(C)n(Cc5nnc([C@@H](C)F)o5)c4c3)c12,,human,"oral, dose not given, grade 5",patients with pyrexia,0%
